{"data": "Experimental data gathered from unrelated publications", "target": "Serine/threonine-protein kinase D1 (PRKD1, Homo sapiens, UniProt Q15139)", "note": "Lines come from different studies, so protocols differ. Values joined by “and” are separate records of one study, mostly repeats; a detail may differ."}
{"Compound": "C=CC(=O)Nc1cccc(-c2cnc3[nH]cc(C(=O)NC(C)(C)C)c3n2)c1", "assay": "enzyme activity, inhibitor", "setting": "0.1 µM", "quantity": "inhibition", "result": "1%"}
{"Compound": "c1ccc2c(Nc3cc(C4CCC4)[nH]n3)nc(Nc3ccc4nc[nH]c4c3)nc2c1", "assay": "enzyme activity, inhibitor", "setting": "0.25 µM", "quantity": "remaining activity", "result": "3%"}
{"Compound": "CNC1C[S+]2CC[S+]3CC[S+](C1)[Ru-4]321([N]=C=S)[n]2c3ccc(OC)cc3c3c4c(c5cc(F)c[n+]1c5c32)C(=O)NC4=O (stereo not shown)", "assay": "KinomeScan", "setting": "0.1 µM", "scale": "relative to: untreated", "quantity": "remaining binding", "result": "100%"}
{"Compound": "Cc1ccc(-c2c(/C=C(\\C#N)C(=O)NC(C)C)n(CCCO)c3ncnc(N)c23)cc1", "assay": "cell-free assay, competition with immobilised ligand", "setting": "1 µM", "quantity": "remaining binding", "result": "95%"}
{"Compound": "Nc1ncc(-c2cc(-c3cnn(CC(F)(F)F)c3)ncc2F)nc1C(=O)NC1CNCC(F)C1 (stereo not shown)", "assay": "enzyme activity", "setting": "1 µM", "scale": "relative to: DMSO control", "quantity": "remaining activity", "result": "57.9%"}
{"Compound": "COc1cc(Nc2nccc(-c3cnn4nc(OC)ccc34)n2)cc(C(F)(F)F)c1", "assay": "binding, competition with immobilised ligand", "setting": "1 µM", "quantity": "remaining binding", "result": "100%"}
{"Compound": "COc1ccc(NC(=O)Nc2ccc3c(c2)C(=O)N(C(C)CO)CC(C)C(CN(C)Cc2ccc4c(c2)OCO4)O3)cc1 (stereo not shown)", "assay": "kinase activity, KinaseProfiler", "setting": "0.03 µM, species human", "scale": "relative to: control", "quantity": "remaining activity", "result": "102%"}
{"Compound": "O=C(Cc1ccc(OCc2ccccc2)cc1)NC1(C(=O)O)CCN(C(=O)c2ccc(-c3cccc(Cl)c3)cc2)CC1", "assay": "enzyme activity, inhibitor", "setting": "10 µM", "quantity": "activity vs control", "result": "102%"}
{"Compound": "C=CC(=O)N1CCCC(n2c(=O)c3ncccc3n(Cc3ccc(Oc4ccccc4)cc3)c2=O)C1 (stereo not shown)", "assay": "cell-free assay, competition with immobilised ligand", "setting": "1 µM", "quantity": "remaining binding", "result": "69%"}
{"Compound": "CN1CCN(Cc2ccc(-c3ccc(CO[C@H]4CCC[C@@H]4NC(=O)c4cc(-c5cnn(C)c5)cnc4N)cc3)cc2)CC1", "assay": "enzyme activity, inhibitor", "setting": "0.1 µM", "quantity": "inhibition", "result": "6%"}
{"Compound": "CNC(=O)C1CCN(c2cc(C)c(F)cc2NC(=O)c2ccc(-c3cc(O)ccc3C)c(C)c2)CC1", "assay": "binding, competition with immobilised ligand", "setting": "1 µM", "quantity": "remaining binding", "result": "92%"}
{"Compound": "NC(=O)C[C@H]1CCc2sc3ncnc(O[C@H]4CC[C@H](N5CCOCC5)CC4)c3c21", "assay": "enzyme activity, inhibitor", "setting": "10 µM", "quantity": "inhibition", "result": "0%"}
{"Compound": "Cc1cccc(-c2ccc3nc(NC(=O)C4CCCO4)nn3c2)c1 (stereo not shown)", "assay": "enzyme activity, Dundee kinase panel", "setting": "10 µM", "quantity": "remaining activity", "result": "92%"}
{"Compound": "Cc1cnc2nc1Nc1cccc(c1)COC/C=C/COCc1cc(ccc1OCCN1CCOCC1)N2", "assay": "binding", "setting": "0.1 µM", "quantity": "remaining binding", "result": "93%"}
{"Compound": "Cc1ccc(C)c(-c2ccc3nc(NC(=O)C4CCCCC4)nn3c2)c1", "assay": "enzyme activity, Dundee kinase panel", "setting": "10 µM", "quantity": "remaining activity", "result": "80%"}
{"Compound": "Cc1cccc(O[C@H]2CCC[C@@H](C(C)CNCc3ccncc3)C2)c1 (relative stereo)", "assay": "enzyme activity, inhibitor", "setting": "1 µM", "quantity": "inhibition", "result": "9%"}
{"Compound": "Nc1nc(Nc2ccccc2)sc1C(=O)c1ccccc1", "assay": "enzyme activity, inhibitor", "setting": "10 µM", "quantity": "remaining activity", "result": "29%"}
{"Compound": "N[C@H]1CC[C@H](Nc2nccc(-c3cccnc3Oc3ccc(NC(=O)NC4CC4)c4ccccc34)n2)CC1", "assay": "kinobead competition pulldown", "system": "HEK293/HCT116 lysate mixture", "setting": "10 µM, 1 h, 4 °C", "scale": "lower = stronger competition", "quantity": "log2 LFQ intensity", "result": "18.5 and 19 and 21.8 and 18.9"}
{"Compound": "COc1c(Cl)cccc1Nc1c(-c2ccncc2C#C[C@@]2(C)CCCN2C(=O)/C=C/CN(C)C)[nH]c2c1C(=O)NCC2", "assay": "binding, competition with immobilised ligand", "setting": "3 µM", "quantity": "remaining binding", "result": "77%"}
{"note": "Excerpt of the above:"}
{"Compound": "NC(=O)C[C@H]1CCc2sc3ncnc(O[C@H]4CC[C@H](N5CCOCC5)CC4)c3c21", "assay": "enzyme activity, inhibitor", "setting": "10 µM", "quantity": "inhibition", "result": "0%"}
{"Compound": "Cc1cccc(-c2ccc3nc(NC(=O)C4CCCO4)nn3c2)c1 (stereo not shown)", "assay": "enzyme activity, Dundee kinase panel", "setting": "10 µM", "quantity": "remaining activity", "result": "92%"}
